Assay results pooled from the literature.
Parts stem from different laboratories: compare values within a part only.
Chain of UniProt P10721 (whole entry, unmodified, looked up): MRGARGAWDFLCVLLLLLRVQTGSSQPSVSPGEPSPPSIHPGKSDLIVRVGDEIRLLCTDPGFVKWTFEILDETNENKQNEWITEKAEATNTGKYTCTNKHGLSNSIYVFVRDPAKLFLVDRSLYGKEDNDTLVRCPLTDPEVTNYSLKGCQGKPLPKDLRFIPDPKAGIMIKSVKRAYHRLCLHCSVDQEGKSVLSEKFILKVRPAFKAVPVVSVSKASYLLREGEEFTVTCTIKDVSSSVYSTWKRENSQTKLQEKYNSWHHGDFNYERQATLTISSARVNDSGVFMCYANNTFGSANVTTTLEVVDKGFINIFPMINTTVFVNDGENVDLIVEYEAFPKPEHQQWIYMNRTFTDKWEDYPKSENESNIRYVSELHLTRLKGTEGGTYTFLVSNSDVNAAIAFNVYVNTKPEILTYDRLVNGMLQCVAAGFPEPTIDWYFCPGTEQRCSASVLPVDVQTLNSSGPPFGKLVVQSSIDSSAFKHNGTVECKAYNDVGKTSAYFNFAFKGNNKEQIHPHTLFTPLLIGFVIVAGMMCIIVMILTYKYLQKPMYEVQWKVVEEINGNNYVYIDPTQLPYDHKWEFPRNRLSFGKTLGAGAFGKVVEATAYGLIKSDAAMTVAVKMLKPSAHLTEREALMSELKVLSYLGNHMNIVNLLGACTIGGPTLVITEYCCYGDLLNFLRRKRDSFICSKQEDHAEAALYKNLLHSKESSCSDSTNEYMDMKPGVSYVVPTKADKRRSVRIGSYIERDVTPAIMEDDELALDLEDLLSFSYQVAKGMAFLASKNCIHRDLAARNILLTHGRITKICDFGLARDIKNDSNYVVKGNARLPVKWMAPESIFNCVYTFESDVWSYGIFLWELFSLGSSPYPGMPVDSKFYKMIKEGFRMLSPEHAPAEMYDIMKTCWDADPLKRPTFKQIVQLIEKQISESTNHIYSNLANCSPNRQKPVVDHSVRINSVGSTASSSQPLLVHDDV
Chain of UniProt Q9NY57 (whole entry, looked up): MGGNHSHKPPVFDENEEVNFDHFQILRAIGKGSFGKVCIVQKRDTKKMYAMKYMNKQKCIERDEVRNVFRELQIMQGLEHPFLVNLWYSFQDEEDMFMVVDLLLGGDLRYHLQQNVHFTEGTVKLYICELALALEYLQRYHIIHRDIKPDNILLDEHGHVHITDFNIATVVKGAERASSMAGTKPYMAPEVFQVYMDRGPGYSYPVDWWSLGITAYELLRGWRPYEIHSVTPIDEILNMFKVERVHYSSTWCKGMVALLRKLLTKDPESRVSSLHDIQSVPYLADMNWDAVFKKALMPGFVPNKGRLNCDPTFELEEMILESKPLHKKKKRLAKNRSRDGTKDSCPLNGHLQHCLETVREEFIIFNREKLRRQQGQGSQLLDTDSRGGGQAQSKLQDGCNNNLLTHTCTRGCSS
Chain of UniProt O60331 (whole entry, looked up): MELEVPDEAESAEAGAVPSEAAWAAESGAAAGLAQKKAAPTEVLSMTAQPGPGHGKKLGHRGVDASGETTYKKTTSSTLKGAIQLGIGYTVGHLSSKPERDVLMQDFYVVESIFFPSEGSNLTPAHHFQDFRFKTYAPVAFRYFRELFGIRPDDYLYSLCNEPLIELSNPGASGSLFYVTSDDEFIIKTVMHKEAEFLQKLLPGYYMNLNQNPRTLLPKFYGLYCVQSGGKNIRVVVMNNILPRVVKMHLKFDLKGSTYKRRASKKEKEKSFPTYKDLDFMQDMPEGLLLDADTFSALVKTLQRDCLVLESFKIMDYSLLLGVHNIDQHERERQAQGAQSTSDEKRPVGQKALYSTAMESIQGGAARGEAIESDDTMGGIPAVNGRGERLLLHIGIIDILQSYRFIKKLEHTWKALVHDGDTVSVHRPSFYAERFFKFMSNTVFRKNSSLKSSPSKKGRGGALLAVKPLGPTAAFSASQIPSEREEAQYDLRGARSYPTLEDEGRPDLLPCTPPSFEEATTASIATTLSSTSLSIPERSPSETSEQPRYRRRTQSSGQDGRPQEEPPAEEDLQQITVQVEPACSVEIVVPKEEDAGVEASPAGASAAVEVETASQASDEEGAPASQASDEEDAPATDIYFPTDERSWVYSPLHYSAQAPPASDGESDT
Chain of UniProt O15146 (whole entry, looked up): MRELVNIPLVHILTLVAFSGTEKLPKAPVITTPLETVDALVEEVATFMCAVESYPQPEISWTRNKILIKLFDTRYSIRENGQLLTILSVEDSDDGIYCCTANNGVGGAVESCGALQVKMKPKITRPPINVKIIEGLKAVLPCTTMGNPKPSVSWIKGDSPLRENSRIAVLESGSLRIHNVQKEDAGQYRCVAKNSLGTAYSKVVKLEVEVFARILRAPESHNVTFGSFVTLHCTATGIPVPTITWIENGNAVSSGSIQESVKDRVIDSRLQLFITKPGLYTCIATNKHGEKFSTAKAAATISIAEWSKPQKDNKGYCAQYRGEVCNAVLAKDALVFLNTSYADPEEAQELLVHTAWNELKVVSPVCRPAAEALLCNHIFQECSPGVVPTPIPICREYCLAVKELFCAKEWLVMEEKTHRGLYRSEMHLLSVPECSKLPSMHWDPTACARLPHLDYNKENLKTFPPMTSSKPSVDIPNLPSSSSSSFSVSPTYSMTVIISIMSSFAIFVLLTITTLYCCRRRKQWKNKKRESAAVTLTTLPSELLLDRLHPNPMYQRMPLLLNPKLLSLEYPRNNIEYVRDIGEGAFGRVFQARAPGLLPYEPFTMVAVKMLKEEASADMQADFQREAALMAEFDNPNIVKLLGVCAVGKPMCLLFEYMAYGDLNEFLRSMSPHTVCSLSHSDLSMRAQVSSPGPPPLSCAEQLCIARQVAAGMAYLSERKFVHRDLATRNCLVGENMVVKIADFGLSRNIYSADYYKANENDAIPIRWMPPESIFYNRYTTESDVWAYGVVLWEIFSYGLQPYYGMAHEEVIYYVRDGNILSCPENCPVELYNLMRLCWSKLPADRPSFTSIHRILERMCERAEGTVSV

Set 1 — effect on: enzyme activity; mode: inhibitor; concentration: 0.5 µM; reference: control
Target: Ephrin type-A receptor 7 (EPHA7, Homo sapiens, UniProt Q15375)
Chain of UniProt Q15375 (whole entry, looked up): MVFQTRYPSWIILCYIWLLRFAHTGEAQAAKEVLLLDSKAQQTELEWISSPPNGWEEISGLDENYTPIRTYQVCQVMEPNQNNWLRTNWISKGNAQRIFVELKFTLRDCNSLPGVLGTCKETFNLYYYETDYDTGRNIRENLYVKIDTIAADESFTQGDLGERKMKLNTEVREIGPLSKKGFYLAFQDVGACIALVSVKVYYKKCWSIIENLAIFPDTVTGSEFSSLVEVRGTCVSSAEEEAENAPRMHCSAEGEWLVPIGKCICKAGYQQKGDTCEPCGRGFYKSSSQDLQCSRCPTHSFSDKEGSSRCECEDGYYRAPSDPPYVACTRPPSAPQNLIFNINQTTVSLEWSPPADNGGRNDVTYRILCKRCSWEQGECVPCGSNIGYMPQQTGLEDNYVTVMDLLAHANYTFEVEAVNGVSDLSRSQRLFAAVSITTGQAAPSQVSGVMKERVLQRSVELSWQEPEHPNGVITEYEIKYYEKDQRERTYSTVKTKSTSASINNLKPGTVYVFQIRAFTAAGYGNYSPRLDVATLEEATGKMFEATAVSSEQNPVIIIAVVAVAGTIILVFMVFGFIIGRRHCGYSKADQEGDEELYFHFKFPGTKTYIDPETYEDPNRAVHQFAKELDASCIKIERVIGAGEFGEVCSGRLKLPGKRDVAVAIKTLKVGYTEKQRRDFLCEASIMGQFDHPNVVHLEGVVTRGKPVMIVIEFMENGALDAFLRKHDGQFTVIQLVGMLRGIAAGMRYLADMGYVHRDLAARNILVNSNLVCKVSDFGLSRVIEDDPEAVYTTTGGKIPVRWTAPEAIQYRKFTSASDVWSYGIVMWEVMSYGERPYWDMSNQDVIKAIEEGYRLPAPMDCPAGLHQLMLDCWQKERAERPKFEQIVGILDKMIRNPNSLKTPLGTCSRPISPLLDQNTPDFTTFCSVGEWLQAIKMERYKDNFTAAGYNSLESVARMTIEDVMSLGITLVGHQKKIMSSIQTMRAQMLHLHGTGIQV
`CCC(=O)Nc1ccc2ncnc(Nc3cccc(Br)c3)c2c1` has a remaining activity of 102%.
`COc1cc2ncnc(N3CCN(C(=O)Nc4ccc(Oc5ccccc5)cc4)CC3)c2cc1OC` gave a remaining activity of 96.8%.
`O=C(Nc1ccc(Cl)cc1)c1ccccc1NCc1ccncc1` has a remaining activity of 95%.
With `O=C1NC(=O)/C(=C/c2ccc3nccnc3c2)S1` the remaining activity was 96.7%.
For `C[S+]([O-])c1ccc(-c2nc(-c3ccncc3)c(-c3ccc(F)cc3)[nH]2)cc1` (stereo not shown), the remaining activity was 83.1%.
For `CCOc1cc2ncnc(Nc3cccc(Br)c3)c2cc1OCC`, the remaining activity was 58.5%.
The remaining activity of `Cn1cc(/C=C2\C(=O)Nc3ccc(S(N)(=O)=O)cc32)c2ccccc21` is reported as 41.3%.
For `COc1cc2ncnc(Nc3ccc(OCc4ccccc4)cc3)c2cc1OC`, the remaining activity was 97%.
`Nc1[nH]nc2nnc(-c3c(-c4ccccc4)nn4ccccc34)cc12` has a remaining activity of 99.5%.
The remaining activity of `O=c1cc(N2CCOCC2)oc2c1ccc1ccccc12` is reported as 98.6%.
For `COc1ccc(-c2cnc3c(-c4ccsc4)cnn3c2)cc1`, the remaining activity was 91.1%.

Set 2 — method: universal PBM; molecule type: double-stranded DNA, one strand shown; matrix: in vitro; concentration: not given; reading: higher = stronger binding
Target: Sal-like protein 4, full length isoform B (SALL4, Homo sapiens, UniProt Q9UJQ4-2, residues 1-616)
Notes: 8-mer, flanks averaged, mean of replicates
Construct (chain): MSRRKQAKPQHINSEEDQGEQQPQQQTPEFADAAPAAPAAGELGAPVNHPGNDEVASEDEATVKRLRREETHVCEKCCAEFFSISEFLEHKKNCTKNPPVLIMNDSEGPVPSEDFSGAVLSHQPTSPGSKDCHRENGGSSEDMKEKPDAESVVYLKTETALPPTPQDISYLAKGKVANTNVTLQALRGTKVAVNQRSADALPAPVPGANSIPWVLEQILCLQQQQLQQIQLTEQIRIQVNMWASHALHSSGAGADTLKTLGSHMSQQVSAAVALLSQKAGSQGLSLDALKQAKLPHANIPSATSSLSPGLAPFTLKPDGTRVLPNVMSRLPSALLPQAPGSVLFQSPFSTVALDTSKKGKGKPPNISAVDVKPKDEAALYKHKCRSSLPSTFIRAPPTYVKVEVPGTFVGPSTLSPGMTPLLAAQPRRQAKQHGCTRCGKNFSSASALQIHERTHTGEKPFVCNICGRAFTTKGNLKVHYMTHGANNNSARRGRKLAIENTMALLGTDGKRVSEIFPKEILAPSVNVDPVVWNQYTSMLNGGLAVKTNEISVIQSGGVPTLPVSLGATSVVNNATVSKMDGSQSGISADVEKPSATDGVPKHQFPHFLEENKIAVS
The E-score of `AGAACTCG` is reported as -0.0708.
For `AAAATGCC`, the E-score was 0.14.
`CACTAGGA` gave an E-score of -0.143.
With `ATGTGACA` the E-score was 0.158.
`CAAGAGTA` gave an E-score of 0.0499.
`CGGCCCCG` gave an E-score of -0.35.
`AAAAACCT` has an E-score of 0.229.
For `AACCTATT`, the E-score was 0.101.

Set 3 — effect on: cell-free assay; method: competition with immobilised ligand; concentration: 1 µM
SMILES: CN(C)C(=O)Cn1cc(-c2nc([C@@](C)(c3ccc(-c4cnc(N)nc4)cc3)C3CC3)no2)cn1
The remaining binding was 91% (Mast/stem cell growth factor receptor Kit (KIT, Homo sapiens, UniProt P10721, V559D)).
Serine/threonine-protein kinase 32B (STK32B, Homo sapiens, UniProt Q9NY57) — remaining binding: 100%.
Tyrosine-protein kinase Fgr (FGR, Homo sapiens, UniProt P09769) — remaining binding: 100%.
Muscle, skeletal receptor tyrosine-protein kinase (MUSK, Homo sapiens, UniProt O15146) — remaining binding: 100%.
For Phosphatidylinositol 4-phosphate 5-kinase type-1 gamma (PIP5K1C, Homo sapiens, UniProt O60331): remaining binding read 100%.

Single results of other studies
`PhoQ, residues 284 288 289 292 302 303 NLALSC` gave a fold induction of 1.43 (PhoP, residues 12 14 15 18 19 GQALL (Escherichia coli, UniProt P23836); Sort-seq, measured: YFP reporter; E. coli; PhoQ-PhoP variant library, together with: 10 µM Mg2+; reference: high Mg2+ state, higher = stronger signaling).

Some of these lines once more (set 2):
With `ATGTGACA` the E-score was 0.158.
`CAAGAGTA` gave an E-score of 0.0499.
`CGGCCCCG` gave an E-score of -0.35.
